Published values of several laboratories.
Compare with care: the assays were run in different laboratories. Values joined by “and” are separate records of one study, mostly repeats; a detail may differ. ± gives the spread as reported.
UniProt Q9EPB5, sequence (whole entry, looked up): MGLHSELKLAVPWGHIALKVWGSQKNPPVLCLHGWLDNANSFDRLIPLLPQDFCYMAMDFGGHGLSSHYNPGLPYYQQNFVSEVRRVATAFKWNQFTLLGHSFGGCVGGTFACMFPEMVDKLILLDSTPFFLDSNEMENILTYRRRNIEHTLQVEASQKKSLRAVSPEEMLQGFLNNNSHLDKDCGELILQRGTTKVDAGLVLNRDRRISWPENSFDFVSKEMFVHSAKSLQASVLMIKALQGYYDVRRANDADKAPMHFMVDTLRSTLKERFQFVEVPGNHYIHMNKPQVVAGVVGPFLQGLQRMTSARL
UniProt Q00987, sequence (whole entry, looked up): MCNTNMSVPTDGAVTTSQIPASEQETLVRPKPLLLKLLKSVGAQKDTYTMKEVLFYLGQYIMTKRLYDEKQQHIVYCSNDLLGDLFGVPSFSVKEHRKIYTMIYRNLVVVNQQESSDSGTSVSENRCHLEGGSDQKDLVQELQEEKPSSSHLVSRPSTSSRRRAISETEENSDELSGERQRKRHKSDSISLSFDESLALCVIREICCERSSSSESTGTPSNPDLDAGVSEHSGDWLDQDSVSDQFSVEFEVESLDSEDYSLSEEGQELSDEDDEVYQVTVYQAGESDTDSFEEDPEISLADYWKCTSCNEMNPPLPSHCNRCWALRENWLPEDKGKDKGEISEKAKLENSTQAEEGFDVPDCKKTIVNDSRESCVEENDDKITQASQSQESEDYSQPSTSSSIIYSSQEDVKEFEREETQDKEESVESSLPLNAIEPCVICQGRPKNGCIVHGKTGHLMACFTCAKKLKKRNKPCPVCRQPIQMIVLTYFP
UniProt Q7M759, sequence (whole entry, looked up): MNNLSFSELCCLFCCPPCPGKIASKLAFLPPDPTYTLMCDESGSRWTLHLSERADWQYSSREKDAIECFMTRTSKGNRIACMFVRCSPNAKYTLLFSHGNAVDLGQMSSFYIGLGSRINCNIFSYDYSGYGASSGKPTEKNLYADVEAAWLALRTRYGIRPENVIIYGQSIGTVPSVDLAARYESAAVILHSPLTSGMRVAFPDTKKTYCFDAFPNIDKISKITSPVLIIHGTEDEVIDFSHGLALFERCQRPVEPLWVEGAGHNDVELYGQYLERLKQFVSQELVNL
UniProt Q9UH17, sequence (whole entry, looked up): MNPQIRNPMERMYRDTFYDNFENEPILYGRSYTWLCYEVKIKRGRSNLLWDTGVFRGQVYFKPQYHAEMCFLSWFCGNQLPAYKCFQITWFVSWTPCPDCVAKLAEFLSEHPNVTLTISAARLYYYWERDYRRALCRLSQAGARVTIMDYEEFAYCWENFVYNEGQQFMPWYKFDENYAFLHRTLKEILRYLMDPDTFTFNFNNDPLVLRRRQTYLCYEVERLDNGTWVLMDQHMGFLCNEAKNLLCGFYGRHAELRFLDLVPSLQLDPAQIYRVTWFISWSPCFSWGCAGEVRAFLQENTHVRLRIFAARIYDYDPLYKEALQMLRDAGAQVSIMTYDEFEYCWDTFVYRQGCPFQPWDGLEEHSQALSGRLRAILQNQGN
UniProt P30411, sequence (whole entry, looked up): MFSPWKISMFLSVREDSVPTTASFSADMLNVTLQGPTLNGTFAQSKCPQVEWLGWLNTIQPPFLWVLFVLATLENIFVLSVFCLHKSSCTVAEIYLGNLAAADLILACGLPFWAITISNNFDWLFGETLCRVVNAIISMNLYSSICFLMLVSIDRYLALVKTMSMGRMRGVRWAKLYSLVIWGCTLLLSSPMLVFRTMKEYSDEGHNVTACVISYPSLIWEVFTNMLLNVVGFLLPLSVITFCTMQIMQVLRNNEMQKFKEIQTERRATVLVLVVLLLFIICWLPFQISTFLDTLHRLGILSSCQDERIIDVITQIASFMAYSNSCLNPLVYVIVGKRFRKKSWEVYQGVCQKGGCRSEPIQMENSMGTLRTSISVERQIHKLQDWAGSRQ
UniProt O15075, sequence (whole entry, looked up): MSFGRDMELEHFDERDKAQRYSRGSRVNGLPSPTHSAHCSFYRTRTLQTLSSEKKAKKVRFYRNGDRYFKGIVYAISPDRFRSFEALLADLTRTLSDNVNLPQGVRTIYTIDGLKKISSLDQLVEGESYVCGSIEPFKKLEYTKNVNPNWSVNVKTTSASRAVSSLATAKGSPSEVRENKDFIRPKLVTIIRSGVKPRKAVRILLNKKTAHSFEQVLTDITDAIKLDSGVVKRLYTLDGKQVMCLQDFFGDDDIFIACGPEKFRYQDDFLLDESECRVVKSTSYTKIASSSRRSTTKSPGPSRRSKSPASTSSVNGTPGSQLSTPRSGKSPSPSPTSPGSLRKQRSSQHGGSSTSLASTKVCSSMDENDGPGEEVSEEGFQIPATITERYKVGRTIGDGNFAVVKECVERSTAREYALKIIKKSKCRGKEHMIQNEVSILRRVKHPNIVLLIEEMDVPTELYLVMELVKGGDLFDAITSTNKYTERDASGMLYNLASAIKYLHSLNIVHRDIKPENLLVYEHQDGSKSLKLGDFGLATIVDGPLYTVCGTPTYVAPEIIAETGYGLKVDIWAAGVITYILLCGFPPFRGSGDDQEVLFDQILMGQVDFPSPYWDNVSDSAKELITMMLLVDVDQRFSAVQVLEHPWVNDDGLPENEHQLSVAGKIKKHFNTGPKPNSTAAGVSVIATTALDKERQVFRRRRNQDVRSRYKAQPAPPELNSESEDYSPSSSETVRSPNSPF
UniProt P21554, sequence (whole entry, looked up): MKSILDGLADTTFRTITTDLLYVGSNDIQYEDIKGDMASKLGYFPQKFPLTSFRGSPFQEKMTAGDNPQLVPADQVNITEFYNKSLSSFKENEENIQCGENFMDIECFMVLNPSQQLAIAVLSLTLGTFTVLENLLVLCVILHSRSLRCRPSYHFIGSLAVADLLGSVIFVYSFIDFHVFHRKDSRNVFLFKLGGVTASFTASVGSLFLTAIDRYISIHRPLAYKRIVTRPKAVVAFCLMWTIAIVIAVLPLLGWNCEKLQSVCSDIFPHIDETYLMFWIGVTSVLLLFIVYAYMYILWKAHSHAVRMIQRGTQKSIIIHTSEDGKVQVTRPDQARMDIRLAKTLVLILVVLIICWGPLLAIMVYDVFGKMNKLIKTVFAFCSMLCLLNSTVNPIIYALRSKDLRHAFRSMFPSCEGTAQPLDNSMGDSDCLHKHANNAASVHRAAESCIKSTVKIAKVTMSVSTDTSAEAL
UniProt P18089, sequence (whole entry, looked up): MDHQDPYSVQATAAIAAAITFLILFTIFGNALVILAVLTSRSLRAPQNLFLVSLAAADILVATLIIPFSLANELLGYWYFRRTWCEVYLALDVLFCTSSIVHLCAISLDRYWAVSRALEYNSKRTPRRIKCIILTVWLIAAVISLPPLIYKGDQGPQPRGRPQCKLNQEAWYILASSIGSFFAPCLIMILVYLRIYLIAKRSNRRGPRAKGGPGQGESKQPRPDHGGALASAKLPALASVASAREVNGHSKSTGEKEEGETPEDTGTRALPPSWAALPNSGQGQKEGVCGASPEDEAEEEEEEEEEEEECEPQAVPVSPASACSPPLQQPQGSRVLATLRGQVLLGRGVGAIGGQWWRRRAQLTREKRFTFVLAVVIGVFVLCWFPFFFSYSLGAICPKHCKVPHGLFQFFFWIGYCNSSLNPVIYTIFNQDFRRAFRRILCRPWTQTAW
UniProt P08069, sequence (whole entry, looked up): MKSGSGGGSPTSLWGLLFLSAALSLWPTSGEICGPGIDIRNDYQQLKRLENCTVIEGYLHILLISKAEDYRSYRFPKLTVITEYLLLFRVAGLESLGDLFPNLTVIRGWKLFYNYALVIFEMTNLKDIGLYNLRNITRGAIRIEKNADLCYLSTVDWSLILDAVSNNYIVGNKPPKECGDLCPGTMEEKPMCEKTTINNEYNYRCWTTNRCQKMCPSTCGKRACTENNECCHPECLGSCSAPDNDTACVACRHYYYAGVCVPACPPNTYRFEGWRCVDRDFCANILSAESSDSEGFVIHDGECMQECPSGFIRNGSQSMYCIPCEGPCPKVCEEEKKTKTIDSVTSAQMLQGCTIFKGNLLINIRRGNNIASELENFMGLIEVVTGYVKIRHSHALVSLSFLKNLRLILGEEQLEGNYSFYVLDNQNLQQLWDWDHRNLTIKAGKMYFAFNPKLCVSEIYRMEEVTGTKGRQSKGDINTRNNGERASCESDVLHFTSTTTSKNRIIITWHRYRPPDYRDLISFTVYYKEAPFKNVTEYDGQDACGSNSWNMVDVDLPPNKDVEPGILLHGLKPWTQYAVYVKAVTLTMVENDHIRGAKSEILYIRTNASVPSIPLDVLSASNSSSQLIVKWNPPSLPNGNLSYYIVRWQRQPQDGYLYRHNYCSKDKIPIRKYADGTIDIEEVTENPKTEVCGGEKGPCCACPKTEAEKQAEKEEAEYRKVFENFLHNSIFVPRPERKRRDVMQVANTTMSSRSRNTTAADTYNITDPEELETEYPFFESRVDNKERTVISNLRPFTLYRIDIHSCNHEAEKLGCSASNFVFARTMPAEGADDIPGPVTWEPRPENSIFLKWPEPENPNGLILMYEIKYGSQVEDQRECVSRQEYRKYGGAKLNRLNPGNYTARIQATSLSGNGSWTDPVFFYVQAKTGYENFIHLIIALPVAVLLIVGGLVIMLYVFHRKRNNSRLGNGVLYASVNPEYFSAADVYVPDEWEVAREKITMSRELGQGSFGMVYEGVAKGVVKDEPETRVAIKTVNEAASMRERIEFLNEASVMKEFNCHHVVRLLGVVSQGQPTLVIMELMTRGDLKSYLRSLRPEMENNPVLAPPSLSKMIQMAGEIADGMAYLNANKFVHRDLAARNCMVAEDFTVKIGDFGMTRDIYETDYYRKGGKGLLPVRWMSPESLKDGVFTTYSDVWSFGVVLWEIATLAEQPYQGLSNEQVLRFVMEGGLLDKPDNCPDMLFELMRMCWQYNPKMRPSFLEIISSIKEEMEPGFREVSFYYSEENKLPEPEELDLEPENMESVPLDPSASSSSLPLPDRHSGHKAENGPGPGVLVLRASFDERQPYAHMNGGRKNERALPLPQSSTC

Compound = CS(C)(=O)=Nc1ccc(-c2ccc(-c3nc4cc(O[C@@H]5CO[C@H]6[C@@H]5OC[C@H]6O)[nH]c4cc3F)cc2)cc1; tested on = MINK1 (Homo sapiens, UniProt Q8N4C8); assay = enzyme activity, inhibitor; conditions = 10 µM; measurement = inhibition; result = 5%
Compound = CCCCC/C=C\C/C=C\C/C=C\C/C=C\CCCC(=O)NCCc1ccc(O)c(O)c1; tested on = Trpv1 (Mus musculus, UniProt Q704Y3, T551V); assay = ion current, agonist, whole-cell patch clamp; conditions = T551V; how to read = baseline: 3 mM 2-APB; measurement = maximal open probability; result = 0.46 ± 0.09
Compound = CCOC(=O)[C@@H]1Cc2c(cc([N+](=O)[O-])cc2[N+](=O)[O-])[C@H](O)[C@]12C(=O)Nc1ccc(Br)cc12; tested on = DCLK1 (Homo sapiens, UniProt O15075); assay = KINOMEscan; conditions = 100 nM; how to read = baseline: DMSO control; measurement = remaining binding; result = 46%
Compound = CC[C@H](C)[C@H](NC(=O)[C@H](CCCNC(=N)N)NC(=O)[C@H](CCCNC(=N)N)NC(=O)[C@H](CC(C)C)NC(=O)[C@H](Cc1ccccc1)NC(=O)CNC(=O)CNC(=O)[C@@H](N)Cc1ccc(O)cc1)C(=O)N[C@@H](CCCNC(=N)N)C(=O)N1CCC[C@H]1C(=O)N[C@@H](CCCCN)C(=O)N[C@@H](CC(C)C)C(=O)N[C@@H](CCCCN)C(=O)O; tested on = GPR139 (Homo sapiens, UniProt Q6DWJ6); assay = G protein activation, agonist, BRET, item: Gα11; test system = HEK-293T/17; conditions = 40 µM; how to read = baseline: GαoA response; measurement = Emax; result = 59.5%
Compound = N[C@H](C(=O)N1CCCC1)C1CCN(c2nccc3c(-c4ncc(Cl)cc4Cl)cccc23)CC1; tested on = ADRA2B (Homo sapiens, UniProt P18089); assay = functional response, agonist; conditions = 10 µM; measurement = response; result = -3%
Compound = CC(C)OC(=O)OCOC(=O)C(CCC(=O)O)CP(=O)(OCOC(=O)OC(C)C)OCOC(=O)OC(C)C (stereo not drawn); tested on = Folh1 (Mus musculus, UniProt O35409); assay = radioligand uptake, PET; test system = mouse bearing 22Rv1 tumour, salivary gland; conditions = intravenous, 0.25 mg/kg, 15 min before, imaging at 60 min, added: [18F]F-DCFPyL; how to read = baseline: vehicle; measurement = uptake reduction; result = 87%
Compound = CC(C)CC(O)(CC(C)C)c1cn(C(=O)N2CCCC2)nn1; tested on = Serine hydrolase-like protein (Serhl, Mus musculus, UniProt Q9EPB5); assay = probe labelling, inhibitor, competitive ABPP-SILAC, item: Serhl; test system = mouse T cells; conditions = concentration not given, 4 h, in situ, single peptide; how to read = baseline: treated over DMSO, lower = more inhibition; measurement = SILAC ratio; result = 0.94 and 0.84 and 0.69 and 1.76 and 1.74 and 1.75
Compound = O=C1NC(=O)c2c1c1cc(F)c[n+]3c1c1c2c2cc(O)ccc2[n]1[Ru-4]312([N]=C=S)[S+]3CC[S+]1CC[S+]2CC3 (stereo not drawn); tested on = IGF1R (Homo sapiens, UniProt P08069); assay = enzyme activity; conditions = 100 nM, human enzyme, added: 10 µM ATP; how to read = baseline: untreated; measurement = remaining activity; result = 82%
Compound = CN(/N=C/c1ccccc1C(=O)O)c1nc(-c2ccccc2Cl)cs1; tested on = LYN B kinase; assay = kinase activity, inhibitor; conditions = 1 µM; measurement = inhibition; result = 1.26% and 0.13%
Compound = CC(C)[C@H]1NC(=O)C[C@H]2/C=C/CCSSC[C@@H](NC1=O)C(=O)N[C@H](Cc1cccc3ccccc13)C(=O)NCC(=O)O2; tested on = MAP3K1 (Homo sapiens, UniProt Q13233); conditions = 10 µM; measurement = inhibition; result = 2.7%
Compound = C=CC(=O)Nc1cc(-c2ccc(C(=O)N3CCCC(O)(CC)C3)cc2)ccc1F (stereo not drawn); tested on = DNA dC->dU-editing enzyme APOBEC-3B, C-terminal domain (Homo sapiens, UniProt Q9UH17); assay = covalent adduct, intact protein MS; conditions = 1 h, 20-fold excess, 500 µM; measurement = unmodified protein; result = 65% and 56%
Compound = C[C@H](NCc1ccc(-c2ccc(C(F)(F)F)cc2)cc1)C(N)=O; tested on = BDKRB2 (Homo sapiens, UniProt P30411); assay = radioligand binding, SafetyScreen panel; conditions = 1 µM, species human, added: 0.50 nM [3H]Bradykinin; measurement = inhibition; result = -2%
Compound = O=C(O)c1ccc(-c2nc(-c3ccccc3Cl)c3sccn23)cc1; tested on = nicotinic acetylcholine receptor alpha2; assay = radioligand binding; conditions = 10 µM; how to read = baseline: control; measurement = specific binding; result = 96.2% and 97.3%
Compound = O=C1NC2(CC2)COc2ncc(F)cc2[C@H]2COCCN2c2ccn3ncc1c3n2; test system = Sprague-Dawley rat, female, blood; conditions = oral, 2.5 mg/kg/day, 4 weeks, end of recovery, subacute toxicity; measurement = mean corpuscular haemoglobin; result = 18.8 ± 0.7 pg
Compound = C[C@]1(COC(=O)Cc2ccc(O)c(O)c2)[C@H](C(=O)O)N2C(=O)/C(=C/c3ccccn3)[C@H]2S1(=O)=O; tested on = Beta-lactamase (blaOXA-33, Acinetobacter baumannii, UniProt Q8RLA6); measurement = Ki (inactivation); result = 240 ± 50 nM
Compound = COC(=O)[C@@H](NC(=O)c1nn(Cc2ccc(F)cc2)c2cc(OCCCCNC(=N)N)ccc12)C(C)(C)C; tested on = CNR1 (Homo sapiens, UniProt P21554); assay = β-arrestin recruitment, agonist, BRET; measurement = Emax; result = 47%
Compound = COc1ccc2cc1Oc1cc3c(cc1OC)CCN(C)C3Cc1ccc(cc1)Oc1c(O)c(OC)cc3c1C(C2)N(C)CC3 (stereo not drawn); tested on = Glideosome-associated protein 50 (GAP50, Plasmodium falciparum, UniProt Q8I2X3); assay = binding, surface plasmon resonance; conditions = 1:1 binding model; measurement = koff; result = 0.0145 s⁻¹
Compound = COCC1CCCCN1C(=O)n1cc(C(O)(c2ccccc2)c2ccccc2)nn1 (stereo not drawn); tested on = Alpha/beta hydrolase domain-containing protein 17B (Abhd17b, Mus musculus, UniProt Q7M759); assay = probe labelling, inhibitor, competitive ABPP-SILAC, item: Fam108b1; test system = mouse T cells; conditions = concentration not given, 4 h, single peptide; how to read = baseline: treated over DMSO cells, lower = stronger inhibition; measurement = SILAC activity ratio; result = 1.1 and 1.17 and 1.33
Compound = O=C(CN1CN(c2ccccc2)C2(CCN(C(=O)c3cnc4[nH]ncc4c3)CC2)C1=O)NCC(F)(F)F; tested on = MET (Homo sapiens, UniProt P08581, M1250T); assay = inhibitor; conditions = concentration not given; measurement = inhibition; result = < 50%
Compound = CCn1nc(Cl)c2c1-c1cnc(N)c(c1)O[C@H](C)c1cc(F)ccc1-c1nn(C)cc1C2; tested on = PLK4 (Homo sapiens, UniProt O00444); assay = kinase activity, inhibitor; how to read = baseline: IC50 PLK4 over IC50 ALK; measurement = selectivity ratio; result = 199 fold
Compound = C#CCCCCOc1ccc2c(c1)CCCN2C(=O)CCl; tested on = AP3B1 (Homo sapiens, UniProt O00203); assay = mass spectrometry profiling; test system = H460 cell lysate; conditions = 100 µM over 10 µM, UniProt O00203; how to read = baseline: high over low concentration; measurement = reactivity ratio; result = 1.24
Compound = CN(C)[C@H]1C[C@@]23CC[C@@]4(O2)C(=CC[C@]2(C)[C@@H](c5ccc6ccncc6c5)CC[C@H]24)C=C3[C@@H](O)[C@@H]1O; tested on = NEK9 (Homo sapiens, UniProt Q8TD19); assay = ATP probe labelling, inhibitor, KiNativ profiling; conditions = 0.1 µM; measurement = inhibition; result = 4.9%
Compound = CC(=O)N[C@@H](CCC(N)=O)C(=O)N[C@@H](CC1CCCCC1)C(=O)N[C@@H](CNC(=O)CCl)C(=O)N[C@@H](CC(C)C)C(=O)N[C@@H](Cc1ccccc1)C(=O)O; tested on = Beta sliding clamp (Escherichia coli, UniProt P0A988); assay = binding, isothermal titration calorimetry; conditions = pH 7.4, 22 °C; measurement = -TΔS; result = 1.7 kcal/mol
Compound = CC[C@H](C)[C@@H]1NC(=O)[C@H](CC(C)C)NC(=O)CNC(=O)[C@H](CCCNC(=N)N)NC(=O)[C@H](Cc2c[nH]c3ccccc23)NC(=O)[C@H](CCSC)NC(=O)[C@H](CO)NC(=O)[C@H](CCC(=O)O)NC(=O)[C@H](Cc2ccccc2)NC(=O)[C@H](CC(=O)O)NC(=O)[C@H]([C@@H](C)O)NC(=O)CNC(=O)[C@H](CCC(=O)O)NC(=O)[C@H]([C@@H](C)O)NC(=O)CNC(=O)[C@H](CC(=O)O)NC1=O; tested on = MDM2 (Homo sapiens, UniProt Q00987); assay = MDM2-ligand binding, inhibitor, AlphaLISA competition; conditions = 0.04883 µM, added: GST-tagged MDM2 ligand; how to read = lower = stronger inhibition; measurement = AlphaLISA signal; result = 10500 a.u. and 10800 a.u. and 10200 a.u.

A few entries again:
Compound = COC(=O)[C@@H](NC(=O)c1nn(Cc2ccc(F)cc2)c2cc(OCCCCNC(=N)N)ccc12)C(C)(C)C; tested on = CNR1 (Homo sapiens, UniProt P21554); assay = β-arrestin recruitment, agonist, BRET; measurement = Emax; result = 47%
Compound = C=CC(=O)Nc1cc(-c2ccc(C(=O)N3CCCC(O)(CC)C3)cc2)ccc1F (stereo not drawn); tested on = DNA dC->dU-editing enzyme APOBEC-3B, C-terminal domain (Homo sapiens, UniProt Q9UH17); assay = covalent adduct, intact protein MS; conditions = 1 h, 20-fold excess, 500 µM; measurement = unmodified protein; result = 65% and 56%
Compound = CCOC(=O)[C@@H]1Cc2c(cc([N+](=O)[O-])cc2[N+](=O)[O-])[C@H](O)[C@]12C(=O)Nc1ccc(Br)cc12; tested on = DCLK1 (Homo sapiens, UniProt O15075); assay = KINOMEscan; conditions = 100 nM; how to read = baseline: DMSO control; measurement = remaining binding; result = 46%
